Experimental data collected from several papers.
Each numbered part is a random draw from the data of one study; scales do not carry over between parts. “And” joins repeats or separate records; there may be more than shown.
Sequence of UniProt Q9Y2H1 (whole entry, looked up): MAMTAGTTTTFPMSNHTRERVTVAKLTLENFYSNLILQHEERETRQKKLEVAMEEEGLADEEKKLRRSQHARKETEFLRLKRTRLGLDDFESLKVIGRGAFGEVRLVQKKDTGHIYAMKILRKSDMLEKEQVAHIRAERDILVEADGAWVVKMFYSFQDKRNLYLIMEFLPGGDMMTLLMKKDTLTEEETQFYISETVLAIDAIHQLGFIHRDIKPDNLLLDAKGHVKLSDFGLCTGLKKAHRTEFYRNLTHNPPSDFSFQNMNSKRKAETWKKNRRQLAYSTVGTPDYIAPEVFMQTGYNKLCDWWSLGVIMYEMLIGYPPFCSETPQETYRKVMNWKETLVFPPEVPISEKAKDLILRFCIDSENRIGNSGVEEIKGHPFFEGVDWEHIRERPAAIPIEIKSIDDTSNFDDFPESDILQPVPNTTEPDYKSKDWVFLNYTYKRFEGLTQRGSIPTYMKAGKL

Set 1
Target: RNA binding protein fox-1 homolog 2, RRM domain, GST-SBP tag (RBFOX2, Homo sapiens, UniProt O43251-10, residues 100-194)
Method: RNA Bind-n-Seq
Form: RNA
Matrix: in vitro
Concentration: 365 nM
Notes: natural RNA segment, single round, ends assumed
Reference: no-protein control
Reading: higher = stronger binding
Endpoint: RBNS enrichment (R)
All sequences stand within: GGGAGUUCUACAGUCCGACGAUC … UGGAAUUCUCGGGUGCCAA
Construct (chain): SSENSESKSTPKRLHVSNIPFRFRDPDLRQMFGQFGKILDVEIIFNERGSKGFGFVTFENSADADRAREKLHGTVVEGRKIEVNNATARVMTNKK
AAGCAUUUAGCAAGGUGCCUGGCACAUAGUAAGCACUCAAUAAAUGGUAGUUUUUUUGUUCUUUUAAACUGAGCUCAGCGAGUUUGGCCCACACUGGUGGGCUGCUGGGU: 0.849
AGAAGUACAUGAGGGGCGCAGAGAUGAGCACACAGCUUUGGGCACGGUCCAGGGCAAACUGAAAUGUACGCCUGAAUUUUGUAAACAGAAGUAUUAAAUGUCUCUUUCUA: 0.308
GUGGGACUGUGGAGACUCCGUUAAGACAGGAGCUUGUCAGAGGUGGACAACACGAAGAUUUCCUUUGCAUUUUCAGUAACCUUUGGAGCACACUUCUCUUAUUUCUCCUA: 0.76
AGGAUUUUGGAUGUAUAAUCUAAAACUCAACAAUAAAGAAAUAAUAUUCCAAGUCUCUGGUUUCCUAAGAUACAUAAUAACUGUUUAUAAAGAAGGUCUAAGAGCUGAUA: 0.336
CUCAUUAACUUAACCAACAAUGUGUAUUGAGUCUCUGCUGUAUAUCUGUGAUGCUCUGUCCCAAGCCAUGGGGAUCUAGAGGUGAAUCAGAAAUAGCCUCAGAAACUGAG: 0.31
CAUGCAGUAGCAUUGUAUAGCAACUAGUGCAUUUCAUACUGUAUUAAAUAUGGCACUGCUUCUAAGCCUCGUUCCAGUUAAGUUUCACAUGACAGUUAGCUCCUCUGACC: 0.296
AAUAUCUUAAGAGUAUUGAUAUCUUUCAUUUUUUCAUCCAGCAGUCUAGUGCCCAGCUGCUGACAAUAAAAGCUCCAACUCUUUUAGAGAUCAGUGGAAUUUAGAAGCAU: 0.517
GUGUGGGUCACUGUGAGGUGACUGCAUGGUGCCUGGCCCUGGCACAGCUGGUGACUUCCCUUGUAGAGUGUUUGCGUAGUGGAGUGGCUGUGGCUCACCACCCCCUUUCC: 0.995

Set 2
Target: Prothrombin, mature alpha-thrombin (F2, Homo sapiens, UniProt P00734)
Method: aptamer microarray, sandwich
Form: DNA with 2'F-ANA
Matrix: in vitro
Concentration: 200 nM
Notes: whole 15-mer aptamer, many near background
Added: Cy3 exosite-II aptamer, 400 nM
Reading: higher = stronger binding
Endpoint: mean fluorescence intensity
Sequence: GGTTGGTGTGGTTGG
2'F-ANA at 5 6 7 11: 62.6 a.u.
2'F-ANA at 2 3 5 6 9 14: 49.8 a.u.
2'F-ANA at 4 5 8 10 12 14: 44.4 a.u.
2'F-ANA at 1 2 5 7 8 9 11 15: 59.5 a.u.
2'F-ANA at 1 2 3 4 6 7 10 12 13: 58.4 a.u.
2'F-ANA at 1 4 5 6 7 8 9 12 14: 45.8 a.u.
2'F-ANA at 1 2 3 5 7 8 9 10 11 12 14: 46.3 a.u.
2'F-ANA at 1 4 5 8 9 10 11 12 15: 49.1 a.u.

Single results of other studies
CC(C)n1cnc(-c2ccc(F)cc2)c1-c1ncc(C(=O)Nc2ccc(N3CCN(C)CC3)cc2)[nH]1  Anaemia incidence (IPF patients; 60 mg once daily, adverse event): 0%
OCCOCCN1CCN(C2=Nc3ccccc3Sc3ccccc32)CC1  nuclear SOX9 intensity (mouse MPNST tumor cells; high-content immunofluorescence imaging, item: nuclear SOX9; 10 µM, 12 h, mean of 2 replicates; reference: DMSO control, higher = more nuclear SOX9): 116 % of DMSO and 117 % of DMSO
CO[C@H]1CC[C@H](CNc2ccc(S(=O)(=O)NC(=O)c3ccc(N4CCN(CC5=C(c6ccc(Cl)cc6)CC(C)(C)CC5)CC4)cc3Oc3cnc4[nH]ccc4c3)cc2[N+](=O)[O-])CC1  remaining binding (STK38L (Homo sapiens, UniProt Q9Y2H1); cell-free assay, competition with immobilised ligand; 1 µM): 94%

Excerpt of the above (set 1):
GUGGGACUGUGGAGACUCCGUUAAGACAGGAGCUUGUCAGAGGUGGACAACACGAAGAUUUCCUUUGCAUUUUCAGUAACCUUUGGAGCACACUUCUCUUAUUUCUCCUA: 0.76
CUCAUUAACUUAACCAACAAUGUGUAUUGAGUCUCUGCUGUAUAUCUGUGAUGCUCUGUCCCAAGCCAUGGGGAUCUAGAGGUGAAUCAGAAAUAGCCUCAGAAACUGAG: 0.31
